Experimental data gathered from unrelated publications.
Numbered parts are unrelated; each lists some results of a single study. Positions count from the first letter of the parent shown.
UniProt Q99640, sequence (whole entry, looked up): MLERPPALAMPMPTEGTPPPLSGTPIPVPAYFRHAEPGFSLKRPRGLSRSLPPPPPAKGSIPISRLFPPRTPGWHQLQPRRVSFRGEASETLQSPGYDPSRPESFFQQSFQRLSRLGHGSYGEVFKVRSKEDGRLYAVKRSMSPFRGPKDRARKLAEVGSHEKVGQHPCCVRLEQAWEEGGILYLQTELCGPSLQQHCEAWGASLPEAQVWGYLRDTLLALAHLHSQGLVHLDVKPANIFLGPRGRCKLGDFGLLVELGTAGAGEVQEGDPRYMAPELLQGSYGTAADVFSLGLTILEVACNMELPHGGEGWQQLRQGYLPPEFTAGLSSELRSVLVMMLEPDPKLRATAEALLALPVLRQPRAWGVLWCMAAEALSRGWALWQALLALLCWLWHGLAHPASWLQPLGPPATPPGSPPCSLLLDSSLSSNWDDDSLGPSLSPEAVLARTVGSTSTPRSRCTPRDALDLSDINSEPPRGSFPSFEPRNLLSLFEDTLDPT
UniProt Q9UHD2, sequence (whole entry, looked up): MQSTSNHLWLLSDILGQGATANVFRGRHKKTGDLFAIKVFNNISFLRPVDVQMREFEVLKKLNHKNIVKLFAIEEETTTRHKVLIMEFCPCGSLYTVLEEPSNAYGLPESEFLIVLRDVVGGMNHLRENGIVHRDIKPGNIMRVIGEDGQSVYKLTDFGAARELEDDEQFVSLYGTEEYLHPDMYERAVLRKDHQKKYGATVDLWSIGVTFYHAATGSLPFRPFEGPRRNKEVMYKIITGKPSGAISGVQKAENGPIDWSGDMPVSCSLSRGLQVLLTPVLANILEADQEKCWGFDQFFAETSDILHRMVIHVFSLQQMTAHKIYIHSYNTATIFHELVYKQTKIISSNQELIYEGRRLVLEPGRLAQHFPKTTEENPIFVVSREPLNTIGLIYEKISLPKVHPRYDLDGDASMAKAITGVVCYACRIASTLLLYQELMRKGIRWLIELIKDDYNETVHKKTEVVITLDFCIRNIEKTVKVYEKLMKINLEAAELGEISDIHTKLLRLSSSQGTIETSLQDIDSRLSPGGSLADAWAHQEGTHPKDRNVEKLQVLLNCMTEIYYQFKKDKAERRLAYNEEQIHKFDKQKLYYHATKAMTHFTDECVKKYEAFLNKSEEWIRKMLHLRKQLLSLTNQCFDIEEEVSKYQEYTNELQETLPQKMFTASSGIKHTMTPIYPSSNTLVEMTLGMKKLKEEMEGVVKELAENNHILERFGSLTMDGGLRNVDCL
UniProt Q12852, sequence (whole entry, looked up): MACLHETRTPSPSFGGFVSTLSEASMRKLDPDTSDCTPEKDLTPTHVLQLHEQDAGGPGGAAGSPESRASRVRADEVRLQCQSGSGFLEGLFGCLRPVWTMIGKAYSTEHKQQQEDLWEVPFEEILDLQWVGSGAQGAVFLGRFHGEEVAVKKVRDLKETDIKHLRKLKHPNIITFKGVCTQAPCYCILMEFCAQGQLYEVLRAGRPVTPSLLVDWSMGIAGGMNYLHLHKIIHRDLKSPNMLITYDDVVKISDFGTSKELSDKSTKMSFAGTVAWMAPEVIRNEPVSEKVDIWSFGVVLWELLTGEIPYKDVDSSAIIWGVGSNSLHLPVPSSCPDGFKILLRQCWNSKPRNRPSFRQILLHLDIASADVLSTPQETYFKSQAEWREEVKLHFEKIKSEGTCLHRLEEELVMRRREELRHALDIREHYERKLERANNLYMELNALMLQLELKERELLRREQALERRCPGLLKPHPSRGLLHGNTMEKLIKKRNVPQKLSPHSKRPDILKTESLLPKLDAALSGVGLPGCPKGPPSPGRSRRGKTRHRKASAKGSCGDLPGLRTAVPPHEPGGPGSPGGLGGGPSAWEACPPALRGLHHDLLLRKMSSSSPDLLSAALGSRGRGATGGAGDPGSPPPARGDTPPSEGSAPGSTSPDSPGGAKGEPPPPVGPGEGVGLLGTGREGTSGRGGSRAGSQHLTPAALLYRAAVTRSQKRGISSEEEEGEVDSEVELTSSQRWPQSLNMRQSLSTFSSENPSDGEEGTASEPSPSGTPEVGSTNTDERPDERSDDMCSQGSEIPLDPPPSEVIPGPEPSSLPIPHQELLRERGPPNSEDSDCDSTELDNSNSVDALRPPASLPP
UniProt P53667, sequence (whole entry, looked up): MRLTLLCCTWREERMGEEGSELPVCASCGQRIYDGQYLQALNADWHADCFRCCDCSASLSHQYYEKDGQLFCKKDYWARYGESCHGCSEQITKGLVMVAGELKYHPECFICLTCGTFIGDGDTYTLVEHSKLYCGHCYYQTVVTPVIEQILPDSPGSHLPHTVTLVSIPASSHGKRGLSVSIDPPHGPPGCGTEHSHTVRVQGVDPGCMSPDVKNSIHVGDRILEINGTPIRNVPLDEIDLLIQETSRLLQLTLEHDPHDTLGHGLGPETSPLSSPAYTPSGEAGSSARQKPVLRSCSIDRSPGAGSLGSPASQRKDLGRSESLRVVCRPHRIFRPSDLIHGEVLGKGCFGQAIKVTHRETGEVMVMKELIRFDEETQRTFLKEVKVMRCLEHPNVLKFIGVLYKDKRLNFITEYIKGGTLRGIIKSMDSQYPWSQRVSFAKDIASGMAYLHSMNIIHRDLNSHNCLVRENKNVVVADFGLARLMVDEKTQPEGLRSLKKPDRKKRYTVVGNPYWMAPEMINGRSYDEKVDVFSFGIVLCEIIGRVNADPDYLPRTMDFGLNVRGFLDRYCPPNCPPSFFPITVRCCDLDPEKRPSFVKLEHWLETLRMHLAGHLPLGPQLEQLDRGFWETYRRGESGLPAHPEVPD
UniProt Q9Y6R4, sequence (whole entry, looked up): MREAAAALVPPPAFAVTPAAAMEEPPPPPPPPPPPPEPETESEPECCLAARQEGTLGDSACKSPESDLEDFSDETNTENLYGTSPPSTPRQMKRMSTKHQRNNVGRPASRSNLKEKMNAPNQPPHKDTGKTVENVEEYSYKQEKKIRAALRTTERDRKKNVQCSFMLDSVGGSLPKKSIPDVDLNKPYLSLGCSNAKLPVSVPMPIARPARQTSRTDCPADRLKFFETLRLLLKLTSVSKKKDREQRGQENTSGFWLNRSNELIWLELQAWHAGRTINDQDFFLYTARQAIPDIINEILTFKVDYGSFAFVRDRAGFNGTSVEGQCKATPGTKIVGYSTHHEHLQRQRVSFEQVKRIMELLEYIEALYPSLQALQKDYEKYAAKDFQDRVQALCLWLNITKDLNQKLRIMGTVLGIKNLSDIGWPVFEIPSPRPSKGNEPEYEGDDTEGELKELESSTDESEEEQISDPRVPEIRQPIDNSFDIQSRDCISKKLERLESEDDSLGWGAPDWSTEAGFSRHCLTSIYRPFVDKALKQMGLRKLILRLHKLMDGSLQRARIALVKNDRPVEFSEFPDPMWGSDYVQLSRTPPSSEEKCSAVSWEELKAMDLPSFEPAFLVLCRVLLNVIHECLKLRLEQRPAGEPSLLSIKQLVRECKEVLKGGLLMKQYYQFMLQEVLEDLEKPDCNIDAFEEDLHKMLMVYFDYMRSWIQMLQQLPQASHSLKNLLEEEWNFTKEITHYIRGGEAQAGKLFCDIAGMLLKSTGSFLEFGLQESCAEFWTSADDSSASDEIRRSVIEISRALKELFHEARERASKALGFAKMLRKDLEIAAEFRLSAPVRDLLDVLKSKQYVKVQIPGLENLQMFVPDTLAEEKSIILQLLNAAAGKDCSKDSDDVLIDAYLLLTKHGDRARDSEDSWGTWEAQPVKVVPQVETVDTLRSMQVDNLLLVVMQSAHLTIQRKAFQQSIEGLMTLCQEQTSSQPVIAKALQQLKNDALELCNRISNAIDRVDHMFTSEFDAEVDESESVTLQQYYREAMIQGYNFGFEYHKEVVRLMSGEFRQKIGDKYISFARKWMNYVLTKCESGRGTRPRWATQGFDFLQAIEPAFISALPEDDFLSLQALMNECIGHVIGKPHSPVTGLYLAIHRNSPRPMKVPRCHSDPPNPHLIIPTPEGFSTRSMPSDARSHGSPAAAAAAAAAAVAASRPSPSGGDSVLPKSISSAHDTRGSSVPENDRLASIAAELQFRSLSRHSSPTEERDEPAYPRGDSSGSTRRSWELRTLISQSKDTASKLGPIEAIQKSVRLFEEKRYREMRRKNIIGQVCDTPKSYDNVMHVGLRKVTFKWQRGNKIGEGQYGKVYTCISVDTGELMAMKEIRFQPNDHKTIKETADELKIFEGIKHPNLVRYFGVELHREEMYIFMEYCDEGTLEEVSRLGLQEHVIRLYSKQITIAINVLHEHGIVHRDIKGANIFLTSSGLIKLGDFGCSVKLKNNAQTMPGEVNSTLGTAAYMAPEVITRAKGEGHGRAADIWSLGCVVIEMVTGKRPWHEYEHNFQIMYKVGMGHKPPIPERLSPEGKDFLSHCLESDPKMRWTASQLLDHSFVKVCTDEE

Sample 1
Target: CCNB1, cyclin fold, Cln2 fusion (human)
Method: yeast growth competition, sequencing
Sample: yeast
Setting: weak parent motif
Baseline: not given
Reading: higher = stronger binding
Parent: RB1 docking peptide (human); PKPLKKLRFDIEG
| Variant | normalised enrichment score |
| --- | --- |
| E12V | -0.277 |
| R8C | 0.281 |
| D10G | 1.67 |
| P1D | 2.39 |
| I11V | 0.324 |
| F9Y | 0.169 |
| D10L | 0.0706 |
| L4D | 1.55 |

Sample 2
SMILES: Cn1nc(C(=O)NCc2ccc(C(=O)O)cc2)cc1-c1ccc2[nH]ccc2c1
Effect on: cell-free assay
Method: competition with immobilised ligand
Concentration: 0.1 µM
| target | remaining binding |
| --- | --- |
| Mitogen-activated protein kinase kinase kinase 12 (MAP3K12, Homo sapiens, UniProt Q12852) | 100% |
| Mitogen-activated protein kinase kinase kinase 4 (MAP3K4, Homo sapiens, UniProt Q9Y6R4) | 86% |
| LIM domain kinase 1 (LIMK1, Homo sapiens, UniProt P53667) | 100% |
| Serine/threonine-protein kinase TBK1 (TBK1, Homo sapiens, UniProt Q9UHD2) | 77% |
| Membrane-associated tyrosine- and threonine-specific cdc2-inhibitory kinase (PKMYT1, Homo sapiens, UniProt Q99640) | 93% |

Sample 3
Target: Mitogen-activated protein kinase 11 (MAPK11, Homo sapiens, UniProt Q15759)
UniProt Q15759, sequence (whole entry, looked up): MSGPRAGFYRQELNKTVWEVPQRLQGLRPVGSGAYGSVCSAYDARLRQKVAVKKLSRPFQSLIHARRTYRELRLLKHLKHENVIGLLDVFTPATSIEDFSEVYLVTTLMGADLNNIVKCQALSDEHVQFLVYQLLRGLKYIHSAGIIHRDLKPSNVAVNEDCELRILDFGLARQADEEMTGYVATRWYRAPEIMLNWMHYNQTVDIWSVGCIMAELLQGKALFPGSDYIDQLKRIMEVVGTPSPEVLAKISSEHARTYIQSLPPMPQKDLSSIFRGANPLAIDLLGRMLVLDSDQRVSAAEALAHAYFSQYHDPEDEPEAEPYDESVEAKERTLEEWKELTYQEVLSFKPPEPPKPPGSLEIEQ
Effect on: enzyme activity
Action: inhibitor
Concentration: 0.5 µM
Baseline: control
| SMILES | remaining activity |
| --- | --- |
| O=S(=O)(c1cccc2cnccc12)N1CCCNCC1 | 91.9% |
| CCOC(=O)c1c(C)[nH]c(/C=C2\C(=O)Nc3ccccc32)c1C | 97.5% |
| COc1cc2ncnc(Nc3ccc(Oc4ccccc4)cc3)c2cc1OC | 105% |
| O=C(CCCc1ccc(-c2ccccc2F)cc1)Nc1ccc(O)cc1 | 79.7% |
| Cc1cccc(-c2[nH]c(C(C)(C)C)nc2-c2ccc3c(c2)OCO3)n1 | 93% |
| C#Cc1cccc(Nc2ncnc3cc(OCCOC)c(OCCOC)cc23)c1 | 97.8% |
| NCCNc1ncc(C(N)=O)c(Nc2cccc(C(F)(F)F)c2)n1 | 100% |
| Cn1c2ccccc2c2c3c(c4c5ccccc5n(CCC#N)c4c21)CNC3=O | 99.5% |
| COc1ccc(C(=O)Nc2sc3c(c2C(N)=O)CCCC3)cc1OC | 104% |
| COc1ccc(OC)c2c(=S)c3ccccc3[nH]c12 | 86.7% |
| Cc1ccc(Nc2nccc(N(C)c3ccc4c(C)n(C)nc4c3)n2)cc1S(N)(=O)=O | 93.3% |
| OCC(O)CCON=C1C(c2c(O)[nH]c3ccccc23)=Nc2ccccc21 (stereo not shown) | 95.2% |
| COc1ccc(CNC(=O)Nc2ncc([N+](=O)[O-])s2)cc1 | 95.4% |

Sample 4
Target: Fragile X messenger ribonucleoprotein 1, C-terminal low-complexity region (Fmr1, Mus musculus, UniProt P35922)
Method: RNA Bind-n-Seq
Molecule type: RNA
Sample: in vitro
Concentration: 200 nM
Setting: whole 134-nt RNA, ends assumed
Added: 150 mM KCl
Baseline: input library
Reading: higher = stronger binding
Shared flanks, not repeated: GGGAGUUCUACAGUCCGACGAUC … UGGAAUUCUCGGGUGUCAAGG
| Sequence | log2 enrichment |
| --- | --- |
| UGGCCCUGGUGGCAUGCGGGGAGGAAGAGGUGGCCUCAUGUAUCGUGGUGGUCCCGGUGGAAUGUUCAGAGGUGGCCGUGGUGGAGACAG | -0.121 |
| ACCAUGCAGGUGGGCAUAAAUGGGAAGUGGGGCAAGGGGGGGAUAGGGAGGGGGGUAACACUUUGGGAACAGGUGGUCCCAGGUCGUUUC | 0.463 |
| AGUCCUGUGCUACACAUCGUAUGUACCGAAUCAAACCCCCAAACCCAAAUUUUUAAAAAAGUAUUAUGUUACGCCGUUCGGAUCUGCACU | 0.0274 |
| UGCAUGUGCACUGAUAGGCCAAGGCCAGCUGAACCAGGCCAUGAAAAUCCUACAAAAAGCUGAAGGUUGGAAGUUUGUUAAACUUAUCUG | -1.41 |
| AGUCCUGUGCUACACAUCGUAUGUACCGAAUCGGGGAAAAAGGGGUGGGGAAAGGGGAAAGUAUUAUGUUACGCCGUUCGGAUCUGCACU | 0.335 |
| CACAGACAACACGCACCCACACAGACACAGAGGGAAGGGGUUGGGAUGGGGACAGGGUGCACAGCAGGGCGGGGUAGGACCCCAGCACCU | 1.17 |
| UAACUUUAGAGGAGGAUCUGAUGGAUAUGGCAGUAGACGUGGAUUUGGGGAUGGCUAUAAUGGGUAUGGAGGAGGACCUGGAGGUGGCAA | 0.332 |
| ACCAUGCAGGUGGGCAUCUCUGGGAAGUGGGGCAAGGGGGGGAUAGGGAGGGGGGUAACACUUUGGGAACAGGUGGUCCCAGGUCGUUUC | 0.813 |

For quick reference, copied from above (sample 3):
| SMILES | remaining activity |
| --- | --- |
| Cc1ccc(Nc2nccc(N(C)c3ccc4c(C)n(C)nc4c3)n2)cc1S(N)(=O)=O | 93.3% |
| OCC(O)CCON=C1C(c2c(O)[nH]c3ccccc23)=Nc2ccccc21 (stereo not shown) | 95.2% |
| Cn1c2ccccc2c2c3c(c4c5ccccc5n(CCC#N)c4c21)CNC3=O | 99.5% |
| CCOC(=O)c1c(C)[nH]c(/C=C2\C(=O)Nc3ccccc32)c1C | 97.5% |
